Measured values collected from several papers.
Parts stem from different laboratories: compare values within a part only. Positions count from the first letter of the parent shown.

Study 1
Target: ABI1, truncated, D143A, DHFR fusion (Arabidopsis thaliana)
Method: DHFR PCA, deep sequencing
Matrix: yeast
Setting: methotrexate growth selection, single substitutions
Added: (+)-ABA 200 µM
Relative to: wild-type fitted maximum
Direction: higher = stronger binding
Starting sequence: PYL1, truncated, DHFR fusion (Arabidopsis thaliana); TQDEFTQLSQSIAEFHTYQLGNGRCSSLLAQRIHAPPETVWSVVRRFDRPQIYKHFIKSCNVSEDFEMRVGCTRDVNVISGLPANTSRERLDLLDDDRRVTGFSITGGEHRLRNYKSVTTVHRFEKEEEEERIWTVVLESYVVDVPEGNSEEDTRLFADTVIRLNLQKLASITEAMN; partner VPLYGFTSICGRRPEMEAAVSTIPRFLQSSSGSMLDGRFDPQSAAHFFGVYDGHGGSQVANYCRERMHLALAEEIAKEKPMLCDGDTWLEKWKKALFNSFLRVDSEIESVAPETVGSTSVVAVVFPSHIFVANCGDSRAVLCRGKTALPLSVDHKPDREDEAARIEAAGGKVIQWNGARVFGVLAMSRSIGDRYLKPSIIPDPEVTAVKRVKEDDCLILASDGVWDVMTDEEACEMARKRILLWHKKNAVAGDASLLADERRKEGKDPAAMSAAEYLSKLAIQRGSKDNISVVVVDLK
For `L91R`, “relative binding score” read 27.5%.
For `C25D`, “relative binding score” read 10.7%.
`I162S`: “relative binding score” 12.6%.
Under “relative binding score”, `G81I` is recorded as 24.3%.
`D95M`: “relative binding score” 86.6%.
For `G148C`, “relative binding score” read 81.3%.
`R45N`: “relative binding score” 50.8%.
`P83Y`: “relative binding score” 14.8%.
Under “relative binding score”, `E139I` is recorded as 84.3%.
Under “relative binding score”, `L93I` is recorded as 111%.
For `V70F`, “relative binding score” read 60.9%.
`S11Y`: “relative binding score” 101%.
Under “relative binding score”, `S117I` is recorded as 0.736%.

Study 2
Target: Prothrombin, mature alpha-thrombin (F2, Homo sapiens, UniProt P00734)
Method: aptamer microarray, sandwich
Molecule type: DNA with 2'F-ANA
Matrix: in vitro
Concentration: 200 nM
Setting: whole 15-mer aptamer, many near background
Added: Cy3 exosite-II aptamer, 400 nM
Direction: higher = stronger binding
Strand: GGTTGGTGTGGTTGG
`2'F-ANA at 3 5 7 11 12 14` — result for “mean fluorescence intensity”: 57.2 a.u.
Under “mean fluorescence intensity”, `2'F-ANA at 2 4 9 12 14 15` is recorded as 129 a.u.
`2'F-ANA at 3 9 10 11 13 14` — result for “mean fluorescence intensity”: 405 a.u.
`2'F-ANA at 2 4 5 6 10 11 12 15`: “mean fluorescence intensity” 60.5 a.u.
For `2'F-ANA at 1 4 6 7 10 11 13 14 15`, “mean fluorescence intensity” read 49.4 a.u.
For `2'F-ANA at 1 3 4 6 7 9 11 12 13 15`, “mean fluorescence intensity” read 163 a.u.
Under “mean fluorescence intensity”, `2'F-ANA at 3 6 10 12 13 14` is recorded as 387 a.u.
Under “mean fluorescence intensity”, `2'F-ANA at 1 5 8 13 15` is recorded as 48.8 a.u.
Under “mean fluorescence intensity”, `2'F-ANA at 1 2 3 4 7 10 15` is recorded as 58.1 a.u.
`2'F-ANA at 3 4 9 10 14`: “mean fluorescence intensity” 341 a.u.
`2'F-ANA at 1 3 4 5 7 8 9 10 11` — result for “mean fluorescence intensity”: 110 a.u.

Study 3
Target: Sal-like protein 4, full length isoform B (SALL4, Homo sapiens, UniProt Q9UJQ4-2, residues 1-616)
Method: universal PBM
Molecule type: double-stranded DNA, one strand shown
Matrix: in vitro
Concentration: not given
Setting: 8-mer, flanks averaged, mean of replicates
Direction: higher = stronger binding
Construct (chain): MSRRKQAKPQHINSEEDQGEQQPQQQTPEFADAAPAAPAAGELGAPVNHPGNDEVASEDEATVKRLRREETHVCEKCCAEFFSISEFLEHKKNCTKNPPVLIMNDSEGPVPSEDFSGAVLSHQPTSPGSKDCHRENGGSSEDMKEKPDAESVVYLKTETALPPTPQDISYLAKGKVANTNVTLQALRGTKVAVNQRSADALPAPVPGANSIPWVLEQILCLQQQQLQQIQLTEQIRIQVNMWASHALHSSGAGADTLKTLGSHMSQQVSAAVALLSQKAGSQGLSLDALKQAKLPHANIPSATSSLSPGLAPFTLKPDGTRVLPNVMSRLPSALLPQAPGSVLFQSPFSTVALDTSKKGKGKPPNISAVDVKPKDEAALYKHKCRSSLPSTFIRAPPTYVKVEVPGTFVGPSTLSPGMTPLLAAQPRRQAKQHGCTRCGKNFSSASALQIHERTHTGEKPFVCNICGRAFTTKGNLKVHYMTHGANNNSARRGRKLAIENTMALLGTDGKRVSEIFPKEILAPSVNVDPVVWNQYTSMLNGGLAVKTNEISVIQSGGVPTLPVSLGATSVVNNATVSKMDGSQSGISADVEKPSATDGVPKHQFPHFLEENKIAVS
For `ACATCTAG`, the E-score was 0.075.
`GCGACGGA` gave an E-score of -0.251.
`TACGAATA` has an E-score of 0.301.
With `CGCTTACA` the E-score was -0.167.
For `CCTCATAA`, the E-score was 0.248.
`ATATCCGG` has an E-score of 0.0704.
`TTAGACAA` gave an E-score of 0.178.
The E-score of `ACTGTCCC` is reported as -0.205.
The E-score of `AAGATTCC` is reported as 0.0841.
For `GGCCGTGA`, the E-score was -0.138.
The E-score of `ACAATCAC` is reported as 0.074.
For `CCGATTCC`, the E-score was -0.247.
With `AGATTCCC` the E-score was -0.0895.
The E-score of `ATCTTTCG` is reported as -0.0489.

Mixed results
For `PhoQ, residues 284 288 289 292 302 303 SASVAL`, the fold induction was 20.2 (PhoP, residues 12 14 15 18 19 LHTVM (Escherichia coli, UniProt P23836); Sort-seq, item: YFP reporter; E. coli; PhoQ-PhoP variant library, added: 10 µM Mg2+; relative to: high Mg2+ state, higher = stronger signaling).

Some of these lines once more (study 1):
`S11Y`: “relative binding score” 101%.
`D95M`: “relative binding score” 86.6%.
